Measured values pooled from the literature.
“And” joins repeats or separate records; there may be more than shown. Numbers after ± are the reported error.
TDP1: Tyrosyl-DNA phosphodiesterase 1 (TDP1, Homo sapiens, UniProt Q9NUW8)
Chain of UniProt Q9NUW8 (whole entry, looked up): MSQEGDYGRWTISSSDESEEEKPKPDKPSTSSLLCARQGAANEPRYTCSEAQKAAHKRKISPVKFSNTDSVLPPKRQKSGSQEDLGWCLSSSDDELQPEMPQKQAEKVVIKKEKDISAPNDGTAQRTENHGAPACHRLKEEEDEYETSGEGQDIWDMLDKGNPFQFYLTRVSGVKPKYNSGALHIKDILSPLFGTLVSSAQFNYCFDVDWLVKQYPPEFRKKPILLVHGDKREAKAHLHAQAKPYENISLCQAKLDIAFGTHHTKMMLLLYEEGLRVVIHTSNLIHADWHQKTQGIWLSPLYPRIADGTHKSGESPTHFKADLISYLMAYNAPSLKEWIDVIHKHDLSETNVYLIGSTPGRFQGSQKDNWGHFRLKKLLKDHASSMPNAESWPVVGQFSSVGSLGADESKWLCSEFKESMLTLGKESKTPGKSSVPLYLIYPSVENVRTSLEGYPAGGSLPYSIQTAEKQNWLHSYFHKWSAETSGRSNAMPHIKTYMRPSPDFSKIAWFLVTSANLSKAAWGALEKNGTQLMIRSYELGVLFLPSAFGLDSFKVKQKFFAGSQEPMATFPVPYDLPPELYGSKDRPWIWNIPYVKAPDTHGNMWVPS

SMILES	target or system	test	system	setting	how to read	measurement	result
COc1cccc(OC)c1-c1cc(C(=O)NC2(C(=O)O)C3CC4CC(C3)CC2C4)nn1-c1ccc(C(=O)N(C)CCOCCOCCN(C)C(=O)[C@H](CCCCNC(=O)[C@H](CC(C)C)NC(=O)C2OC2C(=O)O)NC(=O)CN2CCN(CC(=O)[O-])CCN(CC(=O)[O-])CCN(CC(=O)[O-])CC2)cc1C(C)C.[177Lu+3] (mixture of isomers)	–	–	mouse HT-29 xenograft	24 h, biodistribution	baseline: tumour over spleen	tumour-to-spleen ratio	2.69
O=C(O)[C@H]1O[C@@H](N(Cc2ccc(C(F)(F)F)nc2)c2ccc(Cc3c[nH]c4ncc(Cl)cc34)cn2)[C@H](O)[C@@H](O)[C@@H]1O	–	–	human, male, plasma	oral, 400 mg of [14C]-pexidartinib single dose, as metabolite	–	AUClast	95200 ng·h/mL
CC(=O)N([O-])CCCCCNC(=O)CCC(=O)N([O-])CCCCCNC(=O)CCC(=O)N([O-])CCCCCN.[89Zr+4]	–	–	mouse, kidney	1 h	–	tracer uptake	6.64 %ID/g
CCCCN1C(=O)c2cccc3c(NCCCCN4CCOCC4)ccc(c23)C1=O	–	–	ethyl acetate	–	–	emission maximum	509 nm
C=C(NC(=O)c1csc(-c2nc3c(cc2O)-c2nc(cs2)C(=O)NC(C(C)O)C(=O)NC(=C(C)OC)c2nc(cs2)C(=O)NC2c4nc(cs4)C(=O)NC(COC(=O)c4c5c6c(cccc6n4O)COC(=O)C(OC4CC(C)(O)C(N(C)C)C(C)O4)C2OC5)c2nc-3cs2)n1)C(N)=O (stereo not drawn)	–	–	Sprague-Dawley rats, both sexes, plasma	intravenous infusion, 6 mg/kg, day 1, multiple dosing	–	AUC(0-tau)	1770 ± 495 ng·h/mL
CC(CCC(=O)NCC(=O)O)C1CCC2C3CCC4CC(OC5OC(C(=O)O)C(O)C(O)C5O)CCC4(C)C3CC(O)C12C (stereo not drawn)	–	–	human, plasma	endogenous control diurnal	baseline: daily mean concentration	relative peak deviation	153 ± 32%
COc1cccc(OC)c1-c1cc(C(=O)NC2(C(=O)O)C3CC4CC(C3)CC2C4)nn1-c1ccc(C(=O)N(C)CCCN(C)C(=O)[C@H](CCCCNC(=O)[C@H](CC(C)C)NC(=O)C2OC2C(=O)O)NC(=O)CN2CCN(CC(=O)[O-])CCN(CC(=O)[O-])CCN(CC(=O)[O-])CC2)cc1C(C)C.[177Lu+3] (mixture of isomers)	–	–	mouse HT-29 xenograft	4 h, biodistribution	baseline: tumour over pancreas	tumour-to-pancreas ratio	11.2
CC[C@H](C)[C@@H]1NC(=O)[C@H](Cc2ccc(O)cc2)NC(=O)CCCSC[C@@H](C(=O)N(CC(=O)N[C@@H](CC(C)C)C(=O)NCC(N)=O)Cc2ccc(F)cc2)NC(=O)[C@H](CC(N)=O)NC(=O)[C@H](CCC(N)=O)NC1=O	–	–	human	intranasal, 400 µg single dose	–	adverse drug reactions	50%
C/C(N)=N/C(=N\S(=O)(=O)c1ccc(C(F)(F)F)cc1)N1C[C@H](c2ccccc2)C(c2ccc(Cl)cc2)=N1	–	–	beagle dog, plasma	oral, 18 mg/kg	–	Tmax	4 h
Cc1[nH]c(=O)c(CNC(=O)c2cc(Cl)c3c(c2C)O[C@@](C)([C@H]2CC[C@H](N(C)C)CC2)O3)c(C)c1O	–	radiochromatography	human, feces	oral, 200 mg	baseline: dose	fecal excretion	1.3% and 11.5% and 3.7% and 5.3%
CCCCN1C(=O)c2cccc3c(NCCCN4CCOCC4)ccc(c23)C1=O	–	–	acetonitrile	–	–	emission maximum	520 nm
Cn1c(C=NOCc2ccc3nc(-c4ccccc4)c(Nc4ccc(C(=O)O)cc4)n3c2)ccc1C(C#N)c1ccccc1C#N (mixture of isomers)	TDP1	enzyme activity, inhibitor	–	100 µM, unpurified compound	–	inhibition	23.9%
COC1C=COC2(C)Oc3c(C)c(O)c4c(c3C2=O)C2=NC3(CCN(CC(C)C)CC3)NC2=C(NC(=O)C(C)=CC=CC(C)C(O)C(C)C(O)C(C)C(OC(=O)Nc2cscn2)C1C)C4=O (stereo not drawn)	–	–	CD-1 mouse, female, plasma	intravenous, 5 mg/kg	–	volume of distribution	1.5 L/kg
CCCCN1C(=O)c2cccc3c(NCCCCCN4CCOCC4)ccc(c23)C1=O	–	–	chloroform	–	–	emission maximum	502 nm
O=C(Nc1cnccc1-c1ccc([18F])nc1)c1ccnc(NC(=O)C2CC2)c1	–	–	FVB/NJ mice, both sexes, liver	intravenous, 50 min, median, P-gp inhibitor pretreatment, added: tariquidar 15 mg/kg iv	–	SUV	8.11
O=C(O)CCCOc1ccc([18F])cc1-c1cc(-c2ccccc2C(F)(F)F)n(-c2ccccc2)n1	–	OLINDA/EXM extrapolation from mouse	human adult, total body	–	–	absorbed radiation dose	12.3 µGy/MBq
O=C1NC(=O)/C(=C/c2ccc3ncnc(N4CCC(F)CC4)c3n2)S1	–	–	NSG mice	dose not given, day 5	–	body weight	20.3 g and 18.7 g and 16.7 g
C=C[C@]1(C)C[C@@H](OC(=O)CSc2ccc(NC(=O)c3ccco3)cc2)[C@]2(C)[C@H](C)CC[C@]3(CCC(=O)[C@H]32)[C@@H](C)[C@@H]1O	–	–	M. gallisepticum-infected chickens, plasma	intramuscular, 5 mg/kg single dose	–	apparent clearance (CL/F)	3.35 L/h/kg
O=C(O)c1ccc(Nc2c(-c3ccccc3)nc3ccc(CON=Cc4cccc(N5CCCCC5)n4)cn23)cc1	TDP1	enzyme activity, inhibitor	–	100 µM, unpurified compound	–	inhibition	2.9%
COC(=O)C(C)n1nc(Cn2cc3cc(OCC[18F])c(Cl)cc3n2)c2ccccc2c1=O (racemic)	–	–	rat, plasma	5 min	–	parent compound	90%
Cc1cnc2nc1Nc1cccc(c1)COC/C=C/COCc1cc(ccc1OCCN1CCOCC1)N2	–	–	BALB/c mice, rhEPO-induced polycythemia	75 mg/kg, day 1	–	body weight	19.9 g and 18.1 g and 19.5 g and 17.8 g and 18.2 g and 17.3 g
CCCCN1C(=O)c2cccc3c(NCCCCCCN4CCOCC4)ccc(c23)C1=O	–	–	DMSO	–	–	emission maximum	535 nm
[123I]c1ccc2nc(-c3ccc(-n4ccnn4)nc3)cn2c1	–	–	Wistar rat, adrenals	intravenous, 14 h	–	tissue uptake	not detected

SMILES	target or system	test	system	setting	how to read	measurement	result
CCCC[C@H](NC(=O)COCCOCCNC(=O)CN1CCN(CC(=O)O)CCN(CC(=O)O)CC1)C(=O)N[C@H]1CC(=O)NCCCC[C@@H](C(N)=O)NC(=O)[C@H](Cc2c[nH]c3ccccc23)NC(=O)[C@H](CCCNC(=N)N)NC(=O)[C@@H](Cc2ccccc2)NC(=O)[C@H](Cc2c[nH]cn2)NC1=O [fluorine-18 labelled]	–	HPLC	C57 mice melanoma-bearing, urine	1 h	–	defluorination	~10%
Cc1nc(N)nc2c1C(=O)N[C@@H](c1ccc(F)cc1-c1cccc(O[11CH3])n1)C2	–	ex vivo biodistribution	healthy mice, bone	60 min post-injection, baseline, vehicle pre-treatment	–	SUV	0.6 ± 0.4
CSCC[C@H](NC(=O)[C@H](CC(=O)O)NC(C)=O)C(=O)N[C@@H](Cc1ccc(O)cc1)C(=O)N[C@@H](Cc1ccc(O)cc1)C(=O)N[C@@H](CCCNC(=N)N)C(=O)N[C@@H](Cc1ccc(O)cc1)C(=O)N[C@@H](CC(N)=O)C(=O)NCC(=O)N[C@@H](CCCCN)C(=O)N[C@H](C(=O)N[C@@H](Cc1c[nH]c2ccccc12)C(=O)N[C@@H](Cc1c[nH]c2ccccc12)C(=O)N[C@@H](CCCNC(=N)N)C(=O)O)C(C)C	–	circular dichroism	free peptide in solution	concentration not given, 25 °C, no insulin present	–	β-strand content	38.2%
Cc1cc(-c2ccc(C(=O)[C@@H]3CCCC[C@H]3C(=O)Nc3cnn4c3C(=O)NCC4)cc2)[nH]n1	–	–	human, urine	oral, 200 mg, 0-168 h	baseline: dose	cumulative radioactivity recovery	4.93% and 4.97% and 6.7% and 5.62% and 6.33% and 6.8%
CN(C)C(=O)c1cccc(N2Cc3cn(Cc4cccc(F)c4)nc3C2)c1	–	metabolic stability	rat, liver microsomes	–	–	half-life	48 min
COc1ccnc(C(=O)N[C@H]2COC(=O)[C@H](Cc3ccccc3)[C@@H](OC(=O)C(C)C)[C@H](C)OC2=O)c1O	–	soil adsorption	clay soil	pH 7.6, organic carbon 1.7 %	–	Freundlich coefficient KF	120 mL/g
COc1cccc(OC)c1-c1cc(C(=O)NC2(C(=O)O)C3CC4CC(C3)CC2C4)nn1-c1ccc(C(=O)N(C)CCOCCN(C)C(=O)[C@H](CCCCNC(=O)[C@H](CC(C)C)NC(=O)C2OC2C(=O)O)NC(=O)CN2CCN(CC(=O)[O-])CCN(CC(=O)[O-])CCN(CC(=O)[O-])CC2)cc1C(C)C.[177Lu+3] (mixture of isomers)	–	–	mouse HT-29 xenograft	4 h, biodistribution	baseline: tumour over pancreas	tumour-to-pancreas ratio	12
CC(C)(c1cc(Br)c(O)c(Br)c1)c1cc(Br)c(O)c(Br)c1	–	–	whole cow milk	20 nM nominal	–	dose fraction in milk fat	47.3%
O=C(NCC(F)(F)F)c1cccc(N2Cc3cn(Cc4ccc(F)cc4)nc3C2)c1	–	metabolic stability	rat, liver microsomes	–	–	half-life	92 min
Cc1ccc(OCC(=O)N(Cc2cccs2)c2ccn[nH]2)cc1	–	–	rat plasma	750 ng/mL, 2 h, 37 °C, unit not given	baseline: time zero	remaining compound	0.5
CC(C)(O)c1ncc([S@](N)(=O)=NC(=O)Nc2c3c(cc4c2CCC4)CCC3)s1	–	–	human plasma	room temperature	–	stability time	≥ 24 h
C=CC(=O)Nc1cc(Nc2nccc(-c3c[nH]c4ccccc34)n2)c(OC)cc1N(C)CCN(C)C	–	storage stability	human plasma	30 d, -80 °C, LLOQ level	–	recovery	97.6%
COc1cnc2cccc(N3CCc4c(cc(Cn5ccnc5)cc4-c4cn(C)nc4C(F)(F)F)C3=O)c2c1	–	–	male CD-1 mouse, plasma	intraperitoneal, 50 mg/kg	–	half-life	78 min
CC[C@H](C)[C@@H]1NC(=O)[C@H](Cc2ccc(O)cc2)NC(=O)CCSCc2cccc(c2)CSCCNC(=O)[C@H](Cc2c[nH]cn2)NC(=O)[C@H](Cc2ccc(O)cc2)NC(=O)[C@H](CC(=O)O)NC(=O)[C@H](Cc2ccc(O)cc2)NC(=O)[C@H](CC(C)C)NC(=O)[C@H](CCCNC(=N)N)NC1=O	–	PAMPA	–	200 µM, 5 h, pH 7.4	–	membrane retention	< -0.08%
CCCCN1C(=O)c2cccc3c(NCCCCCCCCN4CCOCC4)ccc(c23)C1=O	–	–	ethyl acetate	–	–	emission maximum	513 nm
O=C(NS(=O)(=O)c1cccs1)c1cc2ccccc2n1Cc1ccc(Br)c2ccccc12	–	–	mouse, plasma	oral, 1 mg/kg	–	AUC(0-last)	204 ng·h/mL
COCC1CN(C2CCN(c3cc(OC)c(Nc4ncc(Br)c(Nc5ccc6c(c5P(C)(C)=O)OCCO6)n4)cc3C)CC2)C1	–	–	EGFR-mutant NSCLC patients	oral, 150 mg once daily	–	patients with adverse events	100%
CCCCN1C(=O)c2cccc3c(NCCN4CCOCC4)ccc(c23)C1=O	–	–	DMF	–	–	emission maximum	531 nm
C=CC(=O)N1CCCC(n2c(=O)c3ncccc3n(Cc3ccc(Oc4ccccc4)cc3)c2=O)C1 (stereo not drawn)	–	metabolic stability	male Sprague-Dawley rat, hepatocytes	1 µM, 1 h	–	compound remaining	0.5%
O=C(Nc1cnccc1-c1ccc([18F])cc1)c1ccnc(NC(=O)C2CC2)c1	–	ex vivo gamma counting	GSK-3β transgenic mice, late-stage, stomach	intravenous, 120 min, mean, P-gp inhibitor pretreatment, added: tariquidar 15 mg/kg iv	–	SUV	1.23
CCC1CNC(CC)CN(C(C(=O)[O-])c2ccc(C(=O)[O-])cc2)C(CC)CN(CC(=O)[O-])C(CC)CN1.[Mn+2] (stereo not drawn)	–	ICP-MS	BALB/c mice, intestine	intravenous, 0.05 mmol/kg, 5 min	baseline: injected dose	Mn uptake	9.77 ± 3.9%
Cc1nn(-c2nc3c(F)cc(F)cc3s2)c(O)c1C(c1ccc(C(F)(F)F)cc1)c1c(C)nn(-c2nc3c(F)cc(F)cc3s2)c1O	–	–	ICR mouse	oral, 50 mg/kg, 0.25 h	–	plasma concentration	36800 ng/mL and 21800 ng/mL and 36400 ng/mL
